Assay results gathered from unrelated publications.
Compare with care: the assays were run in different laboratories. Numbers after ± are the reported error.
Matrix: plasma

CCc1nc2c(C)cc(N3CCN(CC(=O)N4CC(O)C4)CC3)cn2c1N(C)c1nc(-c2ccc(F)cc2)c(C#N)s1
AUC(0-inf) (healthy volunteers, fed; oral, 600 mg single dose, day 1, suspension): 53500 ng·h/mL

C[C@@H](N)C1CCN(S(=O)(=O)c2cccc3cnccc23)CC1
AUC(0-inf) (healthy volunteers, fasted; oral, 250 mg): 78.2 ng·h/mL

Oc1ccc([C@@H](O)c2cc(-c3ncnc4cc(N5CCOCC5)ccc34)c(F)cc2Cl)nn1
AUC(0-inf) (geometric mean; healthy volunteers; oral, 100 mg, fasted oral suspension): 524 ng·h/mL

CS(=O)(=O)c1ccc([C@@H](O)[C@@H](CF)NC(=O)C(Cl)Cl)cc1
AUC(0-inf) (chicken (Arbor Acres); oral, 20 mg/kg, with: saline pretreatment): 25100 ± 2720 ng·h/mL

CCCCCCCCCCCCCCCC(=O)N[C@@H](CCC(=O)NCCCC[C@@H]1NC(=O)[C@H]([C@@H](C)CC)NC(=O)[C@@H](NC(=O)[C@@H]2CCCN2C(=O)[C@H](Cc2ccccc2)NC(=O)[C@H](Cc2c[nH]cn2)NC(=O)[C@@H](NC(=O)[C@H](CC(=O)O)NC(=O)CC(C)C)[C@@H](C)O)CSSC[C@@H](C(=O)N[C@@H](CCCCN)C(N)=O)NC(=O)CNC(=O)[C@H](CCCCN)NC(=O)[C@H](CO)NC(=O)[C@H](CCCNC(=N)N)NC(=O)[C@@H]2CCCN2C(=O)[C@H](CCC(=O)O)NC(=O)[C@H](Cc2ccccc2)NC1=O)C(=O)O
AUC(0-inf) (healthy volunteers; subcutaneous, 10 mg single, lyophilised formulation): 16400 ± 2990 ng·h/mL

CC(=O)N[C@H]1CC[C@H](NC(=O)CN2CCN(c3nncc(-c4ccc(C)cc4)n3)CC2)CC1
AUC(0-inf) (women; oral, 100 mg single dose, study): 6370 ng·h/mL

C[C@H]1CN(C(=O)CC#N)[C@]12CCN(c1ncnc3[nH]ccc13)C2
AUC(0-inf) (healthy Japanese males; oral, 25 mg single dose): 957 ng·h/mL

COc1cc(C(=O)NC2CCN(C)CC2)c(F)cc1Nc1ncc(C(F)(F)F)c(Oc2cccc3c2C(=O)N(C)C3)n1
AUC(0-inf) (cancer patients; oral, 10 mg single dose, cycle 1 day 1, geometric mean): 0.527 µM·h
